# Assay results of several laboratories.
# Protocols differ between the studies behind these lines. ± marks the error that the study gave.
# Target: Voltage-gated inwardly rectifying potassium channel KCNH2 (KCNH2, Homo sapiens, UniProt Q12809)
# Chain of UniProt Q12809 (whole entry, looked up): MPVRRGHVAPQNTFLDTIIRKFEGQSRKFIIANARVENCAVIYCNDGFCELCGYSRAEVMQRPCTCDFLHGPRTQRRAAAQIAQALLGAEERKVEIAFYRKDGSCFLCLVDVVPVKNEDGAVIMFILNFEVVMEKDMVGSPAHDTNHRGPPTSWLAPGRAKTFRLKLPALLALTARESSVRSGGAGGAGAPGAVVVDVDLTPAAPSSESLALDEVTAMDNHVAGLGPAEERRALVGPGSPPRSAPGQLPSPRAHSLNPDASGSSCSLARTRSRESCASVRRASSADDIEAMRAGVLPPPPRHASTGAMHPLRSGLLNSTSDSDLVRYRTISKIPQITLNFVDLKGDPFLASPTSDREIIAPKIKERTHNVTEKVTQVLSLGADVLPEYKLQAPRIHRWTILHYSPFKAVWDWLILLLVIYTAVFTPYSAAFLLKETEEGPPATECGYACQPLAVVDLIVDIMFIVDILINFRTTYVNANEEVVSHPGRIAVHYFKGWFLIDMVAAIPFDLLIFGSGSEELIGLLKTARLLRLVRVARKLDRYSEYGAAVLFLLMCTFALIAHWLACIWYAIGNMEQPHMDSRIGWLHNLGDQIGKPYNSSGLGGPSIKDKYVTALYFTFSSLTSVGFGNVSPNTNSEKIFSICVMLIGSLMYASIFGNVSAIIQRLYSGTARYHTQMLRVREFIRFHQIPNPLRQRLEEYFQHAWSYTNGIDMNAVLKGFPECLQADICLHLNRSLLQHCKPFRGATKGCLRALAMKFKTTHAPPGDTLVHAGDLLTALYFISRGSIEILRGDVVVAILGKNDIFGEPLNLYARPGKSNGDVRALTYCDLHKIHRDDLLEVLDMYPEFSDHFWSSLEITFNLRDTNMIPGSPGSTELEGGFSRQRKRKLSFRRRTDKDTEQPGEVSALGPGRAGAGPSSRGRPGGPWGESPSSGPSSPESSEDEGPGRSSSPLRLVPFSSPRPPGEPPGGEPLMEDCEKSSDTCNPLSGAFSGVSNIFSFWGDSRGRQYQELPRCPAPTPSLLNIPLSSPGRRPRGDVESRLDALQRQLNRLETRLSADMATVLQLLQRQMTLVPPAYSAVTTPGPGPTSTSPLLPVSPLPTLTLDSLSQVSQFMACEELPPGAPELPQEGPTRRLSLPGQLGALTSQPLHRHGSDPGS
SMILES,assay,test system,conditions,quantity,value
O=C(CN1CCO[C@@H](COc2cccc(Cl)c2)C1)N1CCc2ccccc21,"potassium current inhibition, inhibitor, PatchXpress electrophysiology",,,Hill slope,0.73 ± 0.15
O=C(O)c1ccc(/C=C2\SC(=S)N(Cc3cccc(C(F)(F)F)c3)C2=O)cc1,"ion current, inhibitor, patch clamp",CHO,10 µM,inhibition,-3.94%
CN1CCN(C(=S)N/N=C/c2ccccc2O)CC1,,,10 µM,inhibition,14.1 ± 0.92%
CN1CCCN(c2cnc3c(cc(C(=O)NCc4ccc(Cl)cc4)c(=O)n3CC(=O)N3CC(C)(F)C3)n2)C1=O,"ion current, inhibitor",,,Hill slope,1.03
c1ccc(OC[C@H]2CN(CCN3CCc4ccccc43)CCO2)nc1,"potassium current inhibition, inhibitor, PatchXpress electrophysiology",,,Hill slope,1
Cc1cc(/C=C/C#N)cc(C)c1Oc1nc(NC2CCN(Cc3ccc(S(C)(=O)=O)cc3)CC2)nc2ncccc12,"hERG current, manual patch clamp",CHO stably expressing hERG,3 µM,inhibition,70.8%
CC(=O)N(C)CCN1CCN(c2cnc3c(cc(C(=O)NCc4ccc(Cl)cc4)c(=O)n3CC(=O)N3CC(C)(F)C3)n2)C1=O,"ion current, inhibitor",,,Hill slope,0.98
Cc1[nH]nc2c1N=C(c1ccccc1Cl)c1cnc(N3CCOCC3)cc1N2,,,10 µM,inhibition,5%
CC1(F)CN(C(=O)Cn2c(=O)c(C(=O)NCc3ccc(Cl)cc3)cc3nc(N4CCN(CCN)C4=O)cnc32)C1,"ion current, inhibitor",,40 µM,inhibition,17.3%
COc1ncc2nc(C)n(Cc3ncc(S(N)(=O)=O)cc3F)c2c1-c1ccccc1,"antagonist, cell-based",,10 µM,inhibition,2.73%
O=C1NC2(CC2)COc2ncc(F)cc2[C@H]2COCCN2c2ccn3ncc1c3n2,"potassium current, whole-cell patch clamp",CHO cells expressing hERG,1.48 µM,inhibition,8.57 ± 1.15%
C[N+](C)(CI)CCO,"ion current, inhibitor, patch clamp",HEK293,pH 7.35,IC50,> 30 µM

# For quick reference, copied from above:
SMILES,assay,test system,conditions,quantity,value
Cc1cc(/C=C/C#N)cc(C)c1Oc1nc(NC2CCN(Cc3ccc(S(C)(=O)=O)cc3)CC2)nc2ncccc12,"hERG current, manual patch clamp",CHO stably expressing hERG,3 µM,inhibition,70.8%
CC(=O)N(C)CCN1CCN(c2cnc3c(cc(C(=O)NCc4ccc(Cl)cc4)c(=O)n3CC(=O)N3CC(C)(F)C3)n2)C1=O,"ion current, inhibitor",,,Hill slope,0.98
